Experimental data from different studies.
Each line is one published result; not all experiments were run side by side. Numbers after ± are the reported error.
PHO4: PHO4 1-312 (Saccharomyces cerevisiae, UniProt P07270)
UniProt P07270, sequence (whole entry, looked up): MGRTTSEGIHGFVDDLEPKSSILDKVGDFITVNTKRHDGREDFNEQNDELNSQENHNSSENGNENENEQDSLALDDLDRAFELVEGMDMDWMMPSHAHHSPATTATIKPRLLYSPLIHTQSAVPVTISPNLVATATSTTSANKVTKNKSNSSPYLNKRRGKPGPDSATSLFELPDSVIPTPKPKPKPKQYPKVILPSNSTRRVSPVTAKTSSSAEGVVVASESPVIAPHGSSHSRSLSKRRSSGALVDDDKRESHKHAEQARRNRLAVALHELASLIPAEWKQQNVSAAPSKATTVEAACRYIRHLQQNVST
SPT15 full length assumed: SPT15 full length assumed (Saccharomyces cerevisiae, UniProt P13393)
UniProt P13393, sequence (whole entry, looked up): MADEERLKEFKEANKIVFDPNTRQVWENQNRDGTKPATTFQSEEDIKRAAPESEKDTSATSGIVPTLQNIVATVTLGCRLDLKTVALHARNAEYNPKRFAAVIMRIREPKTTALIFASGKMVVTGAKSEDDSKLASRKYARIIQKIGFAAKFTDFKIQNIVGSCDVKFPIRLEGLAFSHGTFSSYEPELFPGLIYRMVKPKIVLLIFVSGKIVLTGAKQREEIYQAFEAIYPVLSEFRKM
U2AF2: U2AF2 148-342 (Homo sapiens, UniProt P26368)
UniProt P26368, sequence (whole entry, looked up): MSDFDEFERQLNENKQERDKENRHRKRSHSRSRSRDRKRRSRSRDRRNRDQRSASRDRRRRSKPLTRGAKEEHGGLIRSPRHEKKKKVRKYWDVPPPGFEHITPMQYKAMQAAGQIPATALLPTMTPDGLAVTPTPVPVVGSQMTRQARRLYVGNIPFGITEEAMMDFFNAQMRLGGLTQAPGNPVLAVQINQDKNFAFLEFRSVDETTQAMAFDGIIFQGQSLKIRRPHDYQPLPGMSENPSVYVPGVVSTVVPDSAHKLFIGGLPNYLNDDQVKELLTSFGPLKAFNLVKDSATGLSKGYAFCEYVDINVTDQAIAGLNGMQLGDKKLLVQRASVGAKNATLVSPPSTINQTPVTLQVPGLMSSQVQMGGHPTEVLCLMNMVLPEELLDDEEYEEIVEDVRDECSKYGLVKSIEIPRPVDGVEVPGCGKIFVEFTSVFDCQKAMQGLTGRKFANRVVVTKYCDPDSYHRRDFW
TGM2: TGM2 2-687 (Homo sapiens, UniProt P21980)
UniProt P21980, sequence (whole entry, looked up): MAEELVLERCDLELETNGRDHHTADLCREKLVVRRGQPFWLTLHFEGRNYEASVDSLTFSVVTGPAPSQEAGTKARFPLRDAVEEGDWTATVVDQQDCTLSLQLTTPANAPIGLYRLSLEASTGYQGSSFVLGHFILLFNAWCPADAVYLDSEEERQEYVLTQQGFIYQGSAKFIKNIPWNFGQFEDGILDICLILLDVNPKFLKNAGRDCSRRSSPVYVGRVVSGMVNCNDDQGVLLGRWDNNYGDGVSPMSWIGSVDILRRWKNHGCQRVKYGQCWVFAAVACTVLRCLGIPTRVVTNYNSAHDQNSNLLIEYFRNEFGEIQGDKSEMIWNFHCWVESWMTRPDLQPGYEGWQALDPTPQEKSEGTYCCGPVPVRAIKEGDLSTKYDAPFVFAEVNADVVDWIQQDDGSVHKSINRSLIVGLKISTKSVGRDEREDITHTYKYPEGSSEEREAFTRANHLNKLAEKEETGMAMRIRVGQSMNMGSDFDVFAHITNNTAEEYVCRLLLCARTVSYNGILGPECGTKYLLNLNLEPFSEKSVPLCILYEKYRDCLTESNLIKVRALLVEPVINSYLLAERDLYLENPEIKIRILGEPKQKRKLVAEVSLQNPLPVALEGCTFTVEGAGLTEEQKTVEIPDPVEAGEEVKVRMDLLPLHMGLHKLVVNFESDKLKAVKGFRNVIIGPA
B1: human VDAC2; sequence looked up; chain ATHGQTCARPMCIPPSYADLGKAARDIFNKGFGFGLVKLDVKTKSCSGVEFSTSGSSNTDTGKVTGTLETKYKWCEYGLTFTEKWNTDNTLGTEIAIEDQICQGLKLTFDTTFSPNTGKKSGKIKSSYKRECINLGCDVDFDFAGPAIHGSAVFGYEGWLAGYQMTFDSAKSKLTRNNFAVGYRTGDFQLHTNVNDGTEFGGSIYQKVCEDLDTSVNLAWTSGTNCTRFGIAAKYQLDPTASISAKVNNSSLIGVGYTQTLRPGVKLTLSALVDGKSINAGGHKVGLALELEA
UniProt P17106, sequence (whole entry, looked up): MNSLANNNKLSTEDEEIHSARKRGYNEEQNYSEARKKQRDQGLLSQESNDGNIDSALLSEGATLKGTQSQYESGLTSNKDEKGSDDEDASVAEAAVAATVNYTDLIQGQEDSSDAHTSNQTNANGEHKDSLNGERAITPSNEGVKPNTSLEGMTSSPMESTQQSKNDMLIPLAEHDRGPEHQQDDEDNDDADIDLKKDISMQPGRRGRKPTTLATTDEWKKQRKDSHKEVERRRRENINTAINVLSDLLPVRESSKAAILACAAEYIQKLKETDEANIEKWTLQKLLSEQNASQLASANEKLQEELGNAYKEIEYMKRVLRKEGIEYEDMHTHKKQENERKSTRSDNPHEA
UniProt P29055, sequence (whole entry, looked up): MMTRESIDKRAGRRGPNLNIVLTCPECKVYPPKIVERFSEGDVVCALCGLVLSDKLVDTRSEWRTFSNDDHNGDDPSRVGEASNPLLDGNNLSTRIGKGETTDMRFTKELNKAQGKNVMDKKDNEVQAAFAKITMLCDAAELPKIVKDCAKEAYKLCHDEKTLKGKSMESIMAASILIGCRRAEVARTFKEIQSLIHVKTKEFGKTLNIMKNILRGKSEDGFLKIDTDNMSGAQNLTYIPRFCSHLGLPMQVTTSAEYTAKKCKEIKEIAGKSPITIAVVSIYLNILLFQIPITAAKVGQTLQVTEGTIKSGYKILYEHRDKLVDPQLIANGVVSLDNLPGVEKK

Substance | target | test | system | conditions | how to read | endpoint | value
GCGGUGUAUAGCCUAAUCUUUACCGC (structured RNA) | MECP2 1-486 (Homo sapiens, UniProt P51608) | fluorescence polarization | folded RNA | untagged | – | Kd | 25.2 nM
human filamin C | PP6C (human) | co-immunoprecipitation, IP-MS | CYB5R4 knockout cells | concentration not given | reference: CYB5R4 knockout over parental | log2 fold change | -0.26
CAATACACTGTTATCAGACCCACGTGTCGAGCTACTCGTTCGGTTATCCGGCGGTATGAC (dsDNA) | PHO4 | MITOMI | double-stranded DNA, one strand shown | not purified | – | Kd | 61 ± 1 nM
TAAATATTCTTTCCTTATACATTAGGACCTTTGCATCAAGTCAATCGGTCC (dsDNA; 5'-amino-C6 primer) | SPT15 full length assumed | array | double-stranded DNA, one strand shown | TBP alone | – | Kd | 19.2 ± 1.76 nM
AUCUGAUUU (ssRNA) | U2AF2 | sequencing of bound RNA | RNA | motif only | – | Kd | 3580 nM
GGGAGCAGGAGAGAGGUCAGAUGUGUAGGGAAUGACCGGGGUCCUUAACGCUUCCUAUGCGUGCUAGUGUGA (ssRNA; 2'-fluoro pyrimidines) | TGM2 | SPR | RNA | with: MgCl2 5 mM | higher = more binding | relative binding | 316 RU
GAAAAACATCTAACATAAATATATAAACGCAAACATCAAGTCAATCGGTCC (dsDNA; 5'-amino-C6 primer) | SPT15 full length assumed | array | double-stranded DNA, one strand shown | TBP alone | – | Kd | 40.8 ± 6.47 nM
B1 (human VDAC2) | PP6C (human) | co-immunoprecipitation, IP-MS | CYB5R4 knockout cells | concentration not given | reference: CYB5R4 knockout over parental | log2 fold change | 0.34
CUUUAUUUC (ssRNA) | U2AF2 | sequencing of bound RNA | RNA | motif only | – | Kd | 3780 nM
ATTTTTTAGTCCTATATATACTCGCTCTGCACTTGTCAAGTCAATCGGTCC (dsDNA; 5'-amino-C6 primer) | SUA7 full length assumed (Saccharomyces cerevisiae, UniProt P29055) | array | double-stranded DNA, one strand shown | TFIIB alone | – | Kd | 6.5 ± 1.76 nM
CAATACACTGTTATCCGACACACGTGTCGAGCTACTCGTTCGGTTATCCGGCGGTATGAC (dsDNA) | CBF1 1-351 (Saccharomyces cerevisiae, UniProt P17106) | MITOMI | double-stranded DNA, one strand shown | not purified | – | Kd | 166 ± 8 nM
GGAUUCAAG (ssRNA) | U2AF2 | sequencing of bound RNA | RNA | motif only | – | Kd | 6400 nM
GGGAGCAGGAGAGAGGUCAGAUGAACGGUAAACGUGCAAGCCUUGGUAACGUUCCUAUGCGUGCUAGUGUGA (ssRNA; 2'-fluoro pyrimidines) | TGM2 | SPR | RNA | with: MgCl2 5 mM | higher = more binding | relative binding | -14.1 RU
CAATACACTGTTATCAGCCACACGTGTCGAGCTACTCGTTCGGTTATCCGGCGGTATGAC (dsDNA) | PHO4 | MITOMI | double-stranded DNA, one strand shown | not purified | – | Kd | 154 ± 4 nM

A few entries again:
Substance | target | test | system | conditions | how to read | endpoint | value
GGGAGCAGGAGAGAGGUCAGAUGUGUAGGGAAUGACCGGGGUCCUUAACGCUUCCUAUGCGUGCUAGUGUGA (ssRNA; 2'-fluoro pyrimidines) | TGM2 | SPR | RNA | with: MgCl2 5 mM | higher = more binding | relative binding | 316 RU
